# Published values collected from several papers.
# Numbers after ± are the reported error.
Structure (SMILES),assay,test system,conditions,how to read,endpoint,value
CO[C@H]1C[C@@H]2CC[C@@H](C)[C@@](O)(O2)C(=O)C(=O)N2CCCC[C@H]2C(=O)O[C@H]([C@H](C)C[C@@H]2CC[C@@H](OC(=O)NCCOCCOCCOCCOCCOCCOCCOCCOCCC(=O)N3CCc4cc(Cn5nc(-c6ccc7oc(N)nc7c6)c6c(N)ncnc65)ccc4C3)[C@H](OC)C2)C[C@@H](O)[C@H](C)/C=C(\C)[C@@H](O)[C@@H](OC)C(=O)[C@H](C)C[C@H](C)/C=C/C=C/C=C/1C,"phase 1 dose escalation, item: rash",advanced solid tumour patients,"intravenous, 12 mg weekly, grade ≥3",,TRAE incidence,0%
CCNCCCNC/C=C\CNCCCNCC,,"human, advanced solid tumours","intravenous, dose not given",baseline: patients,serious TEAE,54%
COc1cc2c(Oc3ccc4[nH]c(C)cc4c3F)ccnc2cc1OCC1(N)CC1,,paediatric recurrent refractory sarcoma,12 mg,,Hyperthyroidism incidence,9.1%
Oc1ccc(CCc2cc(O)cc(O)c2)cc1,,"human, both sexes, plasma",median,,plasma concentration,1140 nM
COc1ccc2nc3cc(Cl)ccc3c(Nc3cc(CN4CCCC4)c(O)c(CN4CCCC4)c3)c2n1,,"mouse, blood","oral, 57 mg/kg, tolerability, mean",,creatinine,24.4 µmol/L
CC(C)c1ccc(N=Nc2ccc3[nH]cc(CCN(C)C)c3c2)cc1,light irradiation,solution,with: light 385 nm,,cis isomer at photostationary state,80%
COc1ccc(-c2c(-c3ccc(C#N)c(F)c3)nc(N3CCC(N)CC3)n(C)c2=O)cc1F,item: conjunctival hemorrhage,relapsed/refractory MZL patients,"oral, 60 mg, dose expansion",,grade 3-4 TRAE incidence,0%
C=C(CN(C(=O)c1c(C(F)F)nn(C)c1F)C1CC1)c1ccc(Cl)cc1Cl,static acute toxicity test,zebrafish (Brachydanio rerio),"0.694 mg a.i./L, 48 h",,mortality,0%
COc1ncccc1-c1cnn2ccc(N3CCN(C(=O)OC(C)C)CC3)nc12,,"rat, CCI mechanical allodynia model, plasma","oral, 1 mg/kg, 240 min",,drug concentration,170 nM
CCN1[C@@H](C(=O)NC23CCC(C(=O)O)(CC2)CC3)[C@H](c2cccc(Cl)c2F)[C@]2(C(=O)Nc3cc(Cl)ccc32)C12CCCCC2,,patients with advanced solid tumours,"oral, 150 mg",,anorexia incidence,0%
CC(C)CC(=O)OC[C@H]1O[C@@](C#N)(c2ccc3c(N)ncnn23)[C@H](O)[C@@H]1O,,human plasma,0.9 µM,,fraction unbound,0.193
CCN1CCN(Cc2ccc(Nc3ncc(F)c(-c4cc(F)c5nc6n(c5c4)[C@H](C)CCC6)n3)nc2)CC1,,advanced solid tumour patients,Phase Ia monotherapy,,"Hypercholesterolemia incidence, any grade",62.5%
NCCCC[C@@H]1NC(=O)[C@@H](Cc2c[nH]c3ccccc23)NC(=O)[C@H](c2ccccc2)NC(=O)[C@@H]2C[C@@H](OC(=O)NCCN)CN2C(=O)[C@H](Cc2ccccc2)NC(=O)[C@H](Cc2ccc(OCc3ccccc3)cc2)NC1=O,,healthy human volunteers,600 µg twice daily,,subjects with adverse event Hyperhidrosis,2%
[Cl][212Pb][Cl],,"athymic mice, C4-2 xenograft, lungs","intravenous, 2 h, 212Pb-labelled",,tissue uptake,3.28 ± 0.2 %ID/g

# A few entries again:
Structure (SMILES),assay,test system,conditions,how to read,endpoint,value
CC(C)c1ccc(N=Nc2ccc3[nH]cc(CCN(C)C)c3c2)cc1,light irradiation,solution,with: light 385 nm,,cis isomer at photostationary state,80%
COc1ccc(-c2c(-c3ccc(C#N)c(F)c3)nc(N3CCC(N)CC3)n(C)c2=O)cc1F,item: conjunctival hemorrhage,relapsed/refractory MZL patients,"oral, 60 mg, dose expansion",,grade 3-4 TRAE incidence,0%
